Measurements collected from several papers.
A part holds a random share of what one study measured.
Sequence of UniProt P11802 (whole entry, looked up): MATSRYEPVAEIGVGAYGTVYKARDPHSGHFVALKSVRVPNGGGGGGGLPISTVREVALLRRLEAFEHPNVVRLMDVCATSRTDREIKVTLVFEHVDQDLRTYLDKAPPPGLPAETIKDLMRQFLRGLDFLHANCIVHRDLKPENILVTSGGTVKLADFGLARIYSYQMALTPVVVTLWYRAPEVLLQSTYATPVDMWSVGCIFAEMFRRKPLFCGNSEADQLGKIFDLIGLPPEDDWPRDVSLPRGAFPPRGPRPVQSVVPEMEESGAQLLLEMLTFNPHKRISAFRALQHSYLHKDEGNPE
Sequence of UniProt Q8IW41 (whole entry, looked up): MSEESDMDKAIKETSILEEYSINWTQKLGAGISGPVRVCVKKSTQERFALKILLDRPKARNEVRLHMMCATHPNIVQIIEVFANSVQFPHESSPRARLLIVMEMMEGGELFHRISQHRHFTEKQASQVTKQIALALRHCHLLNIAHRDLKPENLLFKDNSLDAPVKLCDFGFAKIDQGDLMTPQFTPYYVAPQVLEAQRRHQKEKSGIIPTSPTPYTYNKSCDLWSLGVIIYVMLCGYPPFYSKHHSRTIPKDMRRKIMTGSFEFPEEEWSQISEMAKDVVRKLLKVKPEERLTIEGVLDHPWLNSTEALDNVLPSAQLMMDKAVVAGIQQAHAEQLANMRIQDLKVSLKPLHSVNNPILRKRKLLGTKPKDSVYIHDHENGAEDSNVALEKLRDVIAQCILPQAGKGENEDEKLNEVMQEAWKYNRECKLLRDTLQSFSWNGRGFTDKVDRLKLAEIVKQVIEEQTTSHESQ
Sequence of UniProt Q9UM73 (whole entry, unmodified, looked up): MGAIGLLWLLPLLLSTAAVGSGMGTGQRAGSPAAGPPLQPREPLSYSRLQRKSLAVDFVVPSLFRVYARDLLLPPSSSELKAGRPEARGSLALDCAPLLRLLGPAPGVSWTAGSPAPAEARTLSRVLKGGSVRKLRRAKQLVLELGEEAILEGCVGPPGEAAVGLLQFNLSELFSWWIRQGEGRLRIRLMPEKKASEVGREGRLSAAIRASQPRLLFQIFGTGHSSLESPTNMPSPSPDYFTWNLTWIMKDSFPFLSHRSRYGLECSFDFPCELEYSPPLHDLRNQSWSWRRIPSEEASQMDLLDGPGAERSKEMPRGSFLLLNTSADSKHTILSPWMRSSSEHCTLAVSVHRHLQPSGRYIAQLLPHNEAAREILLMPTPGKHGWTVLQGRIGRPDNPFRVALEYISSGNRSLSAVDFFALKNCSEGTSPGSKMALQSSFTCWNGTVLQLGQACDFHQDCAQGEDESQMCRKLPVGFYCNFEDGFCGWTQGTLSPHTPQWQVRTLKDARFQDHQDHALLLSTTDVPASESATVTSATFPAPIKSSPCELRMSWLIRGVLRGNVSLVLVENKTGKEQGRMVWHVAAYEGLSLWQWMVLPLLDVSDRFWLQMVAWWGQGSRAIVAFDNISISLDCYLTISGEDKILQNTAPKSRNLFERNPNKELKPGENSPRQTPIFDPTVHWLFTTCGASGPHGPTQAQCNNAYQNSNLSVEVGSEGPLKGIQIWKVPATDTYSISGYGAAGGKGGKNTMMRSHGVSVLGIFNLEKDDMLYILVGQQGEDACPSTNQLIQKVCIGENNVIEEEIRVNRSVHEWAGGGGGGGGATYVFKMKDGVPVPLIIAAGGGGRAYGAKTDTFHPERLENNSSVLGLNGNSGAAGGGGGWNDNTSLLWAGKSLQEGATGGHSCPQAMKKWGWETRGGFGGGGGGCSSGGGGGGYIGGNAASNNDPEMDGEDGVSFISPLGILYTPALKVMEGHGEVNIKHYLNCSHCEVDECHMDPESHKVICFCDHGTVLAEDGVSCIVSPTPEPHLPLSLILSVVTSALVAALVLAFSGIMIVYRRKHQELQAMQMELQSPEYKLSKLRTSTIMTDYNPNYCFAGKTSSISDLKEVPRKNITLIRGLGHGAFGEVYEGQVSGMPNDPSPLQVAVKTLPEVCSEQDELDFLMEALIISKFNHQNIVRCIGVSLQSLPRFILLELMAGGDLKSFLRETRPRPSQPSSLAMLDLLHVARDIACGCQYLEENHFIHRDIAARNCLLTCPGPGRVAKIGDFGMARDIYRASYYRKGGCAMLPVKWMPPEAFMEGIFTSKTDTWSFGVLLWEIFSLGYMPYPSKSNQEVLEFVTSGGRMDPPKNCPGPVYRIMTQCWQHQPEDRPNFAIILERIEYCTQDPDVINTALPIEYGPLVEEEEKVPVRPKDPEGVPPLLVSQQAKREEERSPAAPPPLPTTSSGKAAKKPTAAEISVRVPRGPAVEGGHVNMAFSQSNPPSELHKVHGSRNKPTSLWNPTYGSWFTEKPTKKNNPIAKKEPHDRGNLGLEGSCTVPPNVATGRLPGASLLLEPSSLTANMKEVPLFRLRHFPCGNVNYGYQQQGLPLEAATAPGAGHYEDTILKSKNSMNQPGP
Sequence of UniProt Q13153 (whole entry, looked up): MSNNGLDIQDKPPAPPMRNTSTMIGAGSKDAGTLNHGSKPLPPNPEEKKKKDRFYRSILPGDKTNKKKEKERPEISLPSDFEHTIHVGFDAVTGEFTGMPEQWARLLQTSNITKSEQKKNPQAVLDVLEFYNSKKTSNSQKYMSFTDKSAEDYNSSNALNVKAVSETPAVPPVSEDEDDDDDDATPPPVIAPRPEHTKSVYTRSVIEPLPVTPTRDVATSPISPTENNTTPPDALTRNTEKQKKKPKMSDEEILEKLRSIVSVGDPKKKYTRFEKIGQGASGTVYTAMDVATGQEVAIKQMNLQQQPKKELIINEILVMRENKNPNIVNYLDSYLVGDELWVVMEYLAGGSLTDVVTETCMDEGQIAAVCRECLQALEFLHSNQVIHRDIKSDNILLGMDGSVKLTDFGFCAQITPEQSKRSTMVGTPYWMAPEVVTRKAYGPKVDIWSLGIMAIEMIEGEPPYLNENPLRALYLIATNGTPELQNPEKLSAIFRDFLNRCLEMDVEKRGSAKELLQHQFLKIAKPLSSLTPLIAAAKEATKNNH
Sequence of UniProt P0C1S8 (whole entry, looked up): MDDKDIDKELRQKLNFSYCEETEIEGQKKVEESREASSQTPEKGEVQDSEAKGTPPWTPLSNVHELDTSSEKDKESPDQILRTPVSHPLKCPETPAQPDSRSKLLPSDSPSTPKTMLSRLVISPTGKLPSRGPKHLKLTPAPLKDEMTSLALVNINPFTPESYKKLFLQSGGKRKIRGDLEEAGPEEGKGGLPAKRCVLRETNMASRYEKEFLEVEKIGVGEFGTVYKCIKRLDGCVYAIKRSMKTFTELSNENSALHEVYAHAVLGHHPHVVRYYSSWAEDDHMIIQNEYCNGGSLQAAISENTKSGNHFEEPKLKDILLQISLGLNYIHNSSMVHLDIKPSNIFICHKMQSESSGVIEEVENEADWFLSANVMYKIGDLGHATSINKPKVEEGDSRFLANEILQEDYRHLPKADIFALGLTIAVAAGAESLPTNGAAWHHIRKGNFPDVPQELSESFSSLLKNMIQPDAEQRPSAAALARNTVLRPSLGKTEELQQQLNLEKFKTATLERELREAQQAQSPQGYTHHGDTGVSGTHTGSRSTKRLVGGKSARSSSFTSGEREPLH
Sequence of UniProt P27037 (whole entry, looked up): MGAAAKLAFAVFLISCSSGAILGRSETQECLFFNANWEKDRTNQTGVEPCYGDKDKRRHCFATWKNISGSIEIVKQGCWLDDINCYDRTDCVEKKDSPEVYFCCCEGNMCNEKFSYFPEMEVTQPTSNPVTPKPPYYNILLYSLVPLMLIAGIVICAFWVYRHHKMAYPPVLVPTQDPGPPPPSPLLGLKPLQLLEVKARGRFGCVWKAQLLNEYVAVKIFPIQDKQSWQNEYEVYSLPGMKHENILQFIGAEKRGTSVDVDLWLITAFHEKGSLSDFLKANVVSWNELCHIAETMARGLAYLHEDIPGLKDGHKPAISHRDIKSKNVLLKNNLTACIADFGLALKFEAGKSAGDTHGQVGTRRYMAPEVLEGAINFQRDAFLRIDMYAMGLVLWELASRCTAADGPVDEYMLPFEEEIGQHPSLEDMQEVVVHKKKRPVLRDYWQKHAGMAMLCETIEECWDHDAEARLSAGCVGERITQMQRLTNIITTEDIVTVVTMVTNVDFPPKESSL

Set 1
Target: Serine/threonine-protein kinase ULK1 (ULK1, Homo sapiens, UniProt O75385)
Sequence of UniProt O75385 (whole entry, looked up): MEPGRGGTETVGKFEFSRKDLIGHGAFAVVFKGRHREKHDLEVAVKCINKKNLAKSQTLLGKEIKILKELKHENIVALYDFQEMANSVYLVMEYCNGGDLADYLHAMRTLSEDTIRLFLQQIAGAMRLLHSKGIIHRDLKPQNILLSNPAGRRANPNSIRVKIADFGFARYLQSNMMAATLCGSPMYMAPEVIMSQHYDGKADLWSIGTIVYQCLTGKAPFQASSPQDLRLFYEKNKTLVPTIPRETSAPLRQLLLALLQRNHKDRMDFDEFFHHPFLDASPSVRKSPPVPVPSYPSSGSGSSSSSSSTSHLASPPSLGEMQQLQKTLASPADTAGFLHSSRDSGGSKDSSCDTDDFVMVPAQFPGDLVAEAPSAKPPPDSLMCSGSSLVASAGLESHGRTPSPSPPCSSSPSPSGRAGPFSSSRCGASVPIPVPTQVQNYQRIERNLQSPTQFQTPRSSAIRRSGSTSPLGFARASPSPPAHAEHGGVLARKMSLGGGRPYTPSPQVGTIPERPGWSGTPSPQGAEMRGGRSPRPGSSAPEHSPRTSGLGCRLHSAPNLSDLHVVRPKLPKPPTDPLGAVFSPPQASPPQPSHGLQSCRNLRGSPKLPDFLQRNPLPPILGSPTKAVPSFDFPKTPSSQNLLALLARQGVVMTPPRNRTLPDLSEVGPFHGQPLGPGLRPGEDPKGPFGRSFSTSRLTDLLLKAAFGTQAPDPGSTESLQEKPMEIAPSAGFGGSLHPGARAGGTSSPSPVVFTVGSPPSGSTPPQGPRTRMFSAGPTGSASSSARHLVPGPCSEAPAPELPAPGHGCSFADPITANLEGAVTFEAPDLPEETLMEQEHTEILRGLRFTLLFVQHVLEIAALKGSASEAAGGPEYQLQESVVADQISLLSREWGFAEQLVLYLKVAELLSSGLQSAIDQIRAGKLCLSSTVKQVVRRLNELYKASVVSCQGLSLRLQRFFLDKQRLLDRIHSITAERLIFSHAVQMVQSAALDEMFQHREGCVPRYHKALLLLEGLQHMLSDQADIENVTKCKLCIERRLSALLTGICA
Effect on: enzyme activity
Mode: inhibitor
Concentration: 0.5 µM
Relative to: control
| Compound | remaining activity [%] |
| --- | --- |
| CNc1cc2c(Nc3cccc(Br)c3)ncnc2cn1 | 98.8 |
| COc1cc2c(Nc3ccc(Br)cc3F)ncnc2cc1OCC1CCN(C)CC1 | 95.7 |
| NC(=O)c1cccc(-c2cc(Nc3ccc(OC(F)(F)F)cc3)ncn2)c1 | 97.5 |
| COc1cc2c(N3CCN(C(=O)Nc4ccc(OC(C)C)cc4)CC3)ncnc2cc1OCCCN1CCCCC1 | 92.1 |
| CCN(CC)CCCCN1c2ccccc2Oc2ccc(Cl)cc21 | 99.8 |
| O=C1NC(=O)/C(=C/c2ccc3c(c2)OC(F)(F)O3)S1 | 100 |
| c1cc(-c2cnn3cc(-c4ccc(OCCN5CCCCC5)cc4)cnc23)ccn1 | 44.3 |
| O=C1c2ccccc2-c2nc3nnnn3nc21 | 107 |
| CCCCc1c(-c2ccc(O)cc2)[nH]c2nccnc12 | 82.5 |

Set 2
SMILES: CC(C)(O)c1cncc(-c2nc3ccc(F)cc3n2C2CC2)c1
Effect on: cell-free assay
Method: competition with immobilised ligand
Concentration: 1 µM
| target | remaining binding [%] |
| --- | --- |
| Serine/threonine-protein kinase Nek4 (NEK4, Homo sapiens, UniProt P51957) | 100 |
| Cyclin-dependent kinase 2 (CDK2, Homo sapiens, UniProt P24941) | 100 |
| Tyrosine-protein kinase ABL1, phosphorylated (ABL1, Homo sapiens, UniProt P00519) | 89 |
| Leukocyte tyrosine kinase receptor (LTK, Homo sapiens, UniProt P29376) | 100 |
| Tyrosine-protein kinase JAK3, JH1 (JAK3, Homo sapiens, UniProt P52333) | 100 |
| ALK tyrosine kinase receptor (ALK, Homo sapiens, UniProt Q9UM73, C1156Y) | 100 |
| Cyclin-dependent kinase 4, with cyclin D3 (CDK4, Homo sapiens, UniProt P11802) | 100 |
| Epidermal growth factor receptor (EGFR, Homo sapiens, UniProt P00533, A750P/del747-749) | 100 |
| Epidermal growth factor receptor (EGFR, Homo sapiens, UniProt P00533, L858R/T790M) | 92 |
| MAP kinase-activated protein kinase 5 (MAPKAPK5, Homo sapiens, UniProt Q8IW41) | 100 |
| Receptor-interacting serine/threonine-protein kinase 4 (RIPK4, Homo sapiens, UniProt P57078) | 100 |
| Epidermal growth factor receptor (EGFR, Homo sapiens, UniProt P00533, del747-752/P753S) | 100 |
| Wee1-like protein kinase 2 (WEE2, Homo sapiens, UniProt P0C1S8) | 100 |
| Tyrosine-protein kinase ABL1, phosphorylated (ABL1, Homo sapiens, UniProt P00519, Y253F) | 100 |
| Serine/threonine-protein kinase ICK (CILK1, Homo sapiens, UniProt Q9UPZ9) | 100 |
| Activin receptor type-2A (ACVR2A, Homo sapiens, UniProt P27037) | 87 |
| Serine/threonine-protein kinase PAK 1 (PAK1, Homo sapiens, UniProt Q13153) | 100 |

Set 3
SMILES: CC(C)n1cnc(-c2ccc(F)cc2)c1-c1ncc(C(=O)Nc2ccc(N3CCN(C)CC3)cc2)[nH]1
Species: idiopathic pulmonary fibrosis patients
| method | item | dose | setting | adverse event incidence |
| --- | --- | --- | --- | --- |
| phase 2a trial | arthritis | 30 mg once daily | grade 5 | 0% |
| – | – | dose not given | ventricular extrasystoles grade 5 | 0% |
| phase 2a trial | QRS axis abnormal | 30 mg once daily | grade 3 | 0% |
| phase 2a trial | liver injury | 30 mg once daily | grade 1 | 0% |
| phase 2a trial | hydroxybutyrate dehydrogenase increased | dose not given | grade 4, all arms pooled | 0% |
| phase 2a trial | ventricular extrasystoles | 60 mg once daily | grade 2 | 0% |
| phase 2a trial | ECG ST segment abnormal | dose not given | grade 3, all arms pooled | 0% |
| phase 2a trial | synovitis | 60 mg once daily | grade 4 | 0% |
| phase 2a trial | synovitis | 60 mg once daily | grade 3 | 0% |
| phase 2a trial | immunoglobulins increased | 60 mg once daily | grade 3 | 0% |
| phase 2a trial | drug eruption | 60 mg once daily | grade 5 | 0% |
| phase 2a trial | infection | 30 mg once daily | grade 4 | 0% |
| phase 2a trial | arthritis | 30 mg once daily | grade 1 | 0% |
| phase 2a trial | liver injury | 60 mg once daily | grade 5 | 0% |
| phase 2a trial | gingivitis | 60 mg once daily | grade 5 | 0% |
| phase 2a trial | ECG ST segment abnormal | 60 mg once daily | grade 2 | 0% |

Set 4
SMILES: COc1cc(C(=O)N2CCC(N3CCN(C)CC3)CC2)ccc1Nc1ncc2c(n1)N(C)c1ccccc1C(=O)N2C
Method: KINOMEscan
Concentration: 10 µM
Relative to: DMSO control
Direction: lower = stronger binding
| target | binding [%] |
| --- | --- |
| SRMS | 77 |
| LIMK1 | 95 |
| MST4 | 95 |
| PRKCE | 100 |
| PRKD1 | 28 |
| MELK | 100 |
| EPHA4 | 89 |
| DMPK | 100 |

Excerpt of the above (set 3):
| method | item | dose | setting | adverse event incidence |
| --- | --- | --- | --- | --- |
| phase 2a trial | drug eruption | 60 mg once daily | grade 5 | 0% |
| phase 2a trial | ECG ST segment abnormal | dose not given | grade 3, all arms pooled | 0% |
| phase 2a trial | ventricular extrasystoles | 60 mg once daily | grade 2 | 0% |
